Results collected from several papers.
Protocols differ between the studies behind these lines.

With `CN1C(=O)[C@@H](NC(=O)c2nnc(Cc3ccccc3)[nH]2)COc2cccnc21` the Cmax was 5240 ng/mL (human, plasma; oral, 600 mg once daily, day 1, geometric mean).
For `COc1ncc(-c2nc3c(n2C(C)C)[C@H](c2ccc(Cl)cc2)N(c2cc(Cl)cn(C)c2=O)C3=O)c(OC)n1`, the Cmax was 2050 ng/mL (LC-MS/MS, noncompartmental; human, plasma; oral, 200 mg, C1D1, high-dose, geometric mean).
The Cmax of `O=C(COc1ccc(Cl)cc1)NC12CC(c3nnc([C@H]4C[C@@H](OC(F)(F)F)C4)o3)(C1)C2` is reported as 2040 nM (healthy human both sexes, plasma; oral, 145 mg once daily, day 1, mean).
`C[C@@H](Nc1cc(F)cc(F)c1)c1cc(C(=O)N(C)C)cc2c(=O)cc(N3CCOCC3)oc12`: “Cmax geometric mean” 971 ng/mL (human, plasma; oral, 120 mg, day 1 single dose).
The Cmax of `CO[C@H]1C[C@@H]2CC[C@@H](C)[C@@](O)(O2)C(=O)C(=O)N2CCCC[C@H]2C(=O)O[C@H]([C@H](C)C[C@@H]2CC[C@@H](OC(=O)NCCOCCOCCOCCOCCOCCOCCOCCOCCC(=O)N3CCc4cc(Cn5nc(-c6ccc7oc(N)nc7c6)c6c(N)ncnc65)ccc4C3)[C@H](OC)C2)C[C@@H](O)[C@H](C)/C=C(\C)[C@@H](O)[C@@H](OC)C(=O)[C@H](C)C[C@H](C)/C=C/C=C/C=C/1C` is reported as 940 ng/mL (human patients, plasma; intravenous, 16 mg, cycle 1 day 15, weekly dosing).
`CC(C)[C@H](N)C(=O)NCCCS(=O)(=O)O` has a Cmax of 8830 ng/mL (human, plasma; oral, 340 mg twice daily days 8-13, once daily day 14, day 14, fed, capsule).
For `C=CC(=O)N(C)CCOc1c(N)ncnc1-c1cc(F)cc(NC(=O)c2ccc(C3CC3)cc2F)c1C`, “Cmax per dose” read 7.95 ng/mL/mg (human; oral, 20 mg, day 7, geometric mean, together with: ritonavir).
`C[C@@H]1CCO[C@H]2Cn3cc(C(=O)NCc4ccc(F)cc4F)c(=O)c(O)c3C(=O)N12` gave a Cmax of 4440 ng/mL (human paediatric patients, weight 6 to under sample A kg, plasma; oral, 12.8 mg granules, steady state, geometric mean, population PK post-hoc, N 6).
`C=CCn1c(=O)c2cnc(Nc3ccc(N4CCN(C)CC4)cc3)nc2n1-c1cccc(C(C)(C)O)n1` has a Cmax of 590 nM (human; oral, 125 mg twice daily, monotherapy lead-in, -5 days; geometric mean).
`CCN1CCN(Cc2ccc(Nc3ncc(F)c(-c4cc(F)c5nc6n(c5c4)[C@H](C)CCC6)n3)nc2)CC1` has a Cmax of 241 ng/mL (human, Phase Ib patients, plasma; 400 mg, single dose, mean, together with: fulvestrant).
For `CNC(=O)c1ccc(-c2cnc3ncc(Cc4ccc5ncccc5c4)n3n2)cc1F`, the Cmax was 1800 ng/mL (human mild hepatic impairment NCI; oral, 200 mg single dose, geometric mean).
With `CCOc1c([C@H](C)n2nc(C)c3c(N)ncnc32)cc(Cl)c(F)c1[C@@H]1CNC(=O)C1` the Cmax was 2150 nM (human patients, Hodgkin lymphoma, plasma; oral, 30 mg, day 15, geometric mean, monotherapy).
For `O=C(O)CCC(=O)O.[2H]C([2H])([2H])Oc1cc(C)c2[nH]ccc2c1CN1CC[C@@H](C2CC2)C[C@H]1c1ccc(C(=O)O)cc1`, the Cmax was 4900 ng/mL (human, plasma; 100 mg twice daily, day 10, multiple ascending dose, geometric mean).

A few entries again:
`C=CCn1c(=O)c2cnc(Nc3ccc(N4CCN(C)CC4)cc3)nc2n1-c1cccc(C(C)(C)O)n1` has a Cmax of 590 nM (human; oral, 125 mg twice daily, monotherapy lead-in, -5 days; geometric mean).
